# Results from different studies.
# ± marks the error that the study gave.
# Technique: steady-state kinetics
# B1: ycjS (Escherichia coli, UniProt P77503); chain MKSAMTSSPLRVAIIGAGQVADKVHASYYCTRNDLELVAVCDSRLSQAQALAEKYGNASVWDDPQAMLLAVKPDVVSVCSPNRFHYEHTLMALEAGCHVMCEKPPAMTPEQAREMCDTARKLGKVLAYDFHHRFALDTQQLREQVTNGVLGEIYVTTARALRRCGVPGWGVFTNKELQGGGPLIDIGIHMLDAAMYVLGFPAVKSVNAHSFQKIGTQKSCGQFGEWDPATYSVEDSLFGTIEFHNGGILWLETSFALNIREQSIMNVSFCGDKAGATLFPAHIYTDNNGELMTLMQREIADDNRHLRSMEAFINHVQGKPVMIADAEQGYIIQQLVAALYQSAETGTRVEL
# B2: protein (Sulfurisphaera tokodaii, UniProt Q96XE7); chain MIILAFDIFGTVLDTSTVIQEFRNKQLEYTWLLTIMGKYVEFEEITKITLRYILKVRGEESKFDEELNKWKNLKAYEDTKYLKEISEIAEVYALSNGSINEVKQHLERNGLLRYFKGIFSAESVKEYKPSPKVYKYFLDSIGAKEAFLVSSNAFDVIGAKNAGMRSIFVNRKNTIVDPIGGKPDVIVNDFKELYEWILRYK
# B3: LigI D246A (Sphingobium sp. SYK-6, UniProt O87170); chain TNDERILSWNETPSKPRYTPPPGAIDAHCHVFGPMAQFPFSPKAKYLPRDAGPDMLFALRDHLGFARNVIVQASCHGTDNAATLDAIARAQGKARGIAVVDPAIDEAELAALHEGGMRGIRFNFLKRLVDDAPKDKFLEVAGRLPAGWHVVIYFEADILEELRPFMDAIPVPIVIDHMGRPDVRQGPDGADMKAFRRLLDSREDIWFKATCPDRLDPAGPPWDDFARSVAPLVADYADRVIWGTAWPHPNMQDAIPDDGLVVDMIPRIAPTPELQHKMLVTNPMRLYWSEEM
# B4: CstB (Staphylococcus aureus, UniProt G5ELA4); chain MFFKQFYDNHLSQASYLVGCQRTGEAIIIDPVRDLSKYIEVADSEGLTITQATETHIHADFASGIRDVAKRLNANIYVSGEGEDALGYKNMPSKTQFVKHGDIIQVGNVKLEVLHTPGHTPESISFLLTDLGGGSSVPMGLFSGDFIFVGDIGRPDLLEKSVQIKGSTEISAKQMYESVQNIKNLPDYVQIWPGHGAGSPCGKALGAIPISTIGYEKINNWAFNEIDETKFIESLTSNQPAPPHHFAQMKQVNQFGMNLYQSYDVYPSLDNKRVAFDLRSKEAFHGGHTKGTINIPYNKNFINQIGWYLDFEKDIDLIGDKSTVEKAKHTLQLIGFDKVAGYRLPKSGISTQSVHSADMTGKEEHVLDVRNDEEWNNGHLDQAVNIPHGKLLNENIPFNKEDKIYVHCQSGVRSSIAVGILESKGFENVVNIREGYQDFPESLK
# B5: Paox (Mus musculus, UniProt Q8C0L6); chain MAFPGPRVLVVGSGIAGLGAAQKLCSHRAAPHLRVLEATASAGGRIRSERCFGGVVELGAHWIHGPSQDNPVFQLAAEFGLLGEKELSEENQLVDTGGHVALPSMIWSSSGTSVSLELMTEMARLFYGLIERTREFLNESETPMASVGEFLKKEISQQVASWTEDDEDTRKRKLAILNTFFNIECCVSGTHSMDLVALAPFGEYTVLPGLDCILAGGYQGLTDRILASLPKDTVAFDKPVKTIHWNGSFQEAAFPGETFPVLVECEDGARLPAHHVIVTVPLGFLKEHQDTFFEPPLPAKKAEAIKKLGFGTNNKIFLEFEEPFWEPDCQFIQVVWEDTSPLQDTALSLQDTWFKKLIGFLVQPSFESSHVLCGFIAGLESEFMETLSDEEVLLSLTQVLRRVTGNPQLPAAKSVRRSQWHSAPYTRGSYSYVAVGSTGDDLDLMAQPLPEDGTGTQLQVLFAGEATHRTFYSTTHGALLSGWREADRLVSLWDSQVEQSRPRL
# B6: asnB E349D (Escherichia coli, UniProt P22106); chain CSIFGVFDIKTDAVELRKKALELSRLMRHRGPDWSGIYASDNAILAHERLSIVDVNAGAQPLYNQQKTHVLAVNGEIYNHQALRAEYGDRYQFQTGSDCEVILALYQEKGPEFLDDLQGMFAFALYDSEKDAYLIGRDHLGIIPLYMGYDEHGQLYVASEMKALVPVCRTIKEFPAGSYLWSQDGEIRSYYHRDWFDYDAVKDNVTDKNELRQALEDSVKSHLMSDVPYGVLLSGGLDSSIISAITKKYAARRVEDQERSEAWWPQLHSFAVGLPGSPDLKAAQEVANHLGTVHHEIHFTVQEGLDAIRDVIYHIETYDVTTIRASTPMYLMSRKIKAMGIKMVLSGDGSDEVFGGYLYFHKAPNAKELHEETVRKLLALHMYDCARANKAMSAWGVEARVPFLDKKFLDVAMRINPQDKMCGNGKMEKHILRECFEAYLPASVAWRQKEQFSDGVGYSWIDTLKEVAAQQVSDQQLETARFRFPYNTPTSKEAYLYREIFEELFPLPSAAECVPGGPSVACSSAKAIEWDEAFKKMDDPSGRAVGVHQSAYK
# B7: protein Y93C (Thermus thermophilus, UniProt Q5SKR5); chain MSAPKPFVIGIAGGTASGKTTLAQALARTLGERVALLPMDHYYKDLGHLPLEERLRVNYDHPDAFDLALYLEHAQALLRGLPVEMPVYDFRACTRSPRRTPVRPAPVVILEGILVLYPKELRDLMDLKVFVDADADERFIRRLKRDVLERGRSLEGVVAQYLEQVKPMHLHFVEPTKRYADVIVPRGGQNPVALEMLAAKALARLARMGAA
# B8: vioC (Streptomyces vinaceus, UniProt Q6WZB0); chain MTESPTTHHGAAPPDSVATPVRPWSEFRLTPAEAAAAAALAARCAQRYDETDGPEFLLDAPVIAHELPRRLRTFMARARLDAWPHALVVRGNPVDDAALGSTPVHWRTARTPGSRPLSFLLMLYAGLLGDVFGWATQQDGRVVTDVLPIKGGEHTLVSSSSRQELGWHTEDAFSPYRADYVGLLSLRNPDGVATTLAGVPLDDLDERTLDVLFQERFLIRPDDSHLQVNNSTAQQGRVEFEGIAQAADRPEPVAILTGHRAAPHLRVDGDFSAPAEGDEEAAAALGTLRKLIDASLYELVLDQGDVAFIDNRRAVHGRRAFQPRYDGRDRWLKRINITRDLHRSRKAWAGDSRVLGQR
# B9: PRODH2 157-515 (Homo sapiens, UniProt Q9UF12); chain YGQFVAGETAEEVKGCVQQLRTLSLRPLLAVPTEEEPDSAAKSGEAWYEGNLGAMLRCVDLSRGLLEPPSLAEASLMQLKVTALTSTRLCKELASWVRRPGASLELSPERLAEAMDSGQNLQVSCLNAEQNQHLRASLSRLHRVAQYARAQHVRLLVDAEYTSLNPALSLLVAALAVRWNSPGEGGPWVWNTYQACLKDTFERLGRDAEAAHRAGLAFGVKLVRGAYLDKERAVAQLHGMEDPTQPDYEATSQSYSRCLELMLTHVARHGPMCHLMVASHNEESVRQATKRMWELGIPLDGTVCFGQLLGMCDHVSLALGQAGYVVYKSIPYGSLEEVIPYLIRRAQENRSVLQGARRE
# B10: GDP-perosamine synthase (Caulobacter vibrioides, UniProt Q9A9H3); chain MSDLPRISVAAPRLDGNERDYVLECMDTTWISSVGRFIVEFEKAFADYCGVKHAIACNNGTTALHLALVAMGIGPGDEVIVPSLTYIASANSVTYCGATPVLVDNDPRTFNLDAAKLEALITPRTKAIMPVHLYGQICDMDPILEVARRHNLLVIEDAAEAVGATYRGKKSGSLGDCATFSFFGNKIITTGEGGMITTNDDDLAAKMRLLRGQGMDPNRRYWFPIVGFNYRMTNIQAAIGLAQLERVDEHLAARERVVGWYEQKLARLGNRVTKPHVALTGRHVFWMYTVRLGEGLSTTRDQVIKDLDALGIESRPVFHPMHIMPPYAHLATDDLKIAEACGVDGLNLPTHAGLTEADIDRVIAALDQVLV
# Chain of UniProt Q6ZQB6 (whole entry, looked up): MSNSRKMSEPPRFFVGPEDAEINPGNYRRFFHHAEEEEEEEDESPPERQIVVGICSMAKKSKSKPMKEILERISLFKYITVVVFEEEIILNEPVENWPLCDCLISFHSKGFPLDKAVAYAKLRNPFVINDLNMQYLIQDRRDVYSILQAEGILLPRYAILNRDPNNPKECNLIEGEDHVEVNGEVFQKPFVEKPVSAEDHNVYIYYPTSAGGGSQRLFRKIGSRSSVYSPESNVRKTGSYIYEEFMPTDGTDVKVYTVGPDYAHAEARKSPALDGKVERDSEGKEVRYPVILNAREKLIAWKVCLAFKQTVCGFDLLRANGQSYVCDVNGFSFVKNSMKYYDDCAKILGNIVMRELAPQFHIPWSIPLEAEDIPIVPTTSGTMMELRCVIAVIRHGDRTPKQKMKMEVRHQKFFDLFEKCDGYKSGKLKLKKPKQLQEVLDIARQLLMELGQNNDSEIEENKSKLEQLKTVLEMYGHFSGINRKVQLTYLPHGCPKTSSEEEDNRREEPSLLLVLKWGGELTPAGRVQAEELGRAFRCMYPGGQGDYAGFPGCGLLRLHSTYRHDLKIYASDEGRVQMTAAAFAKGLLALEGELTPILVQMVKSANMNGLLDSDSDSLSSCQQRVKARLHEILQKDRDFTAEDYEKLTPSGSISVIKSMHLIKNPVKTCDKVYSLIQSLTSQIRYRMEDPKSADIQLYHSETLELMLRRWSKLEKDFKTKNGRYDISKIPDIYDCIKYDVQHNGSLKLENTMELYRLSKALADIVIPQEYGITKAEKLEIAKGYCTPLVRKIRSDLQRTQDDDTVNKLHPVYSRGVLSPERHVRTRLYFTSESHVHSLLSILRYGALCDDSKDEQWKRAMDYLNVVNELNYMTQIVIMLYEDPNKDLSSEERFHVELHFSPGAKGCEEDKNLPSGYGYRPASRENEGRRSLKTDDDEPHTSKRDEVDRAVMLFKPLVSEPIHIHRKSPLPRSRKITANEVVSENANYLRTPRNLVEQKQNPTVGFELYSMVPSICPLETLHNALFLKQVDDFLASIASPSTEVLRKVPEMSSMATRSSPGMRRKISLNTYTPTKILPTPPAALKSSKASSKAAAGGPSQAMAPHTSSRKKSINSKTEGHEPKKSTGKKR
# Chain of UniProt Q5JTZ9 (whole entry, looked up): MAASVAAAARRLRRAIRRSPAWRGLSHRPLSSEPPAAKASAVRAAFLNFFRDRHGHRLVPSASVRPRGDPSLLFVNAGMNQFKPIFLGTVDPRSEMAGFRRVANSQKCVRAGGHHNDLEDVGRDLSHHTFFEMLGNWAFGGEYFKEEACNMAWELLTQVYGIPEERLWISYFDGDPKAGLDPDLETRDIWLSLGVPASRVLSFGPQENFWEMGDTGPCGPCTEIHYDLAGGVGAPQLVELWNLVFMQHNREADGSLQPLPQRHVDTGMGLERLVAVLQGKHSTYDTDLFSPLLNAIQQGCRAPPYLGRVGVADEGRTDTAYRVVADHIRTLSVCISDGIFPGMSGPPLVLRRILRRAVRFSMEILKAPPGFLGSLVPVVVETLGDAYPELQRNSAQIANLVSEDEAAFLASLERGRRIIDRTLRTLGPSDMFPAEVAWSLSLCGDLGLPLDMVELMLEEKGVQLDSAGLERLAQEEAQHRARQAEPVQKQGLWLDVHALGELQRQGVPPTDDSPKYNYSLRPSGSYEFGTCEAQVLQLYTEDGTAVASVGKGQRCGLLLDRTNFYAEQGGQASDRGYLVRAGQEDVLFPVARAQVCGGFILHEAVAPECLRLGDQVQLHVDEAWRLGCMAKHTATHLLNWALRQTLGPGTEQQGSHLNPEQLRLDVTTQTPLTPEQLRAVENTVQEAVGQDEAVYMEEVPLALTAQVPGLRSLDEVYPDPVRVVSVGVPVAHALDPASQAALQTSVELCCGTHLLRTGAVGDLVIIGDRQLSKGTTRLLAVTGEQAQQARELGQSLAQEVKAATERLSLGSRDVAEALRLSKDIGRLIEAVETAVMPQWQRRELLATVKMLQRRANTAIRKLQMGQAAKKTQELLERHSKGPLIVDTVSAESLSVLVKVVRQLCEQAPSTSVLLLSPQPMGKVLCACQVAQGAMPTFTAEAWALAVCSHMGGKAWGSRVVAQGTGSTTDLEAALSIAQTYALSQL
# Chain of UniProt Q8KN33 (whole entry, looked up): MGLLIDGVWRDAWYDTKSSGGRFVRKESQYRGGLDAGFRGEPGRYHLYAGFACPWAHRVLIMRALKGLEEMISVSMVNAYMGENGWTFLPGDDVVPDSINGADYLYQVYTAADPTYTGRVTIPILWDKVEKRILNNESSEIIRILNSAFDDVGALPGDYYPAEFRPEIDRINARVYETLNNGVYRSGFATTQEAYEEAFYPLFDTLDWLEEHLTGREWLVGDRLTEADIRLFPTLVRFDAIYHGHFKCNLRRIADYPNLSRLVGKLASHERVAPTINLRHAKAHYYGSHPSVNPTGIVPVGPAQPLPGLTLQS
# Chain of UniProt P62694 (whole entry, looked up): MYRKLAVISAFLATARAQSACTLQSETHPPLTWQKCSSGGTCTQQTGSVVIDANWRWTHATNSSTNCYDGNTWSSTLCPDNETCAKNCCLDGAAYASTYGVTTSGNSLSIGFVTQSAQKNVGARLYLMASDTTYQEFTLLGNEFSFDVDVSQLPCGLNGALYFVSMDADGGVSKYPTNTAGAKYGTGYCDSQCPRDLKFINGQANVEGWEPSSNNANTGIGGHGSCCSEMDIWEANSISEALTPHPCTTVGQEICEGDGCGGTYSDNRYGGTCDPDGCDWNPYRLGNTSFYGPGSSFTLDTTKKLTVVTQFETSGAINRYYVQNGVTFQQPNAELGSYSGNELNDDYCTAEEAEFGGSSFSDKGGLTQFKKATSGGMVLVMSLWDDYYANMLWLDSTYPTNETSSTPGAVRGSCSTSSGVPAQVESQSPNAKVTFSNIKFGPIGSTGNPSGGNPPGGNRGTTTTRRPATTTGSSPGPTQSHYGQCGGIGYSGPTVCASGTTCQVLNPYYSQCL
Molecule,substrate,conditions,kcat/Km [M⁻¹ s⁻¹]
B1 (ycjS),CO[C@H]1O[C@H](CO)[C@@H](O)[C@H](O)[C@H]1O,"pH 8, 30 °C, together with: NAD+ 2.0 mM",103 ± 11
"AARS2 (Homo sapiens, UniProt Q5JTZ9)",C[C@H](N)C(=O)O,"pH 8, 37 °C, KCl 20 mM, together with: ATP 4 mM",820
B2 (protein),C[C@H](Cl)C(=O)O,"pH 9.5, 70 °C",1.7 ± 0.228
"pcpF (Sphingobium chlorophenolicum, UniProt Q8KN33)",OCCS,"pH 6.5, together with: GS-TriCH, ascorbic acid 2 mM",1170
B3 (LigI D246A),O=C(O)c1cc(C(=O)O)oc(=O)c1,"pH 8.25, 30 °C",16 ± 2
B4 (CstB),O=S(O)(O)=S,"pH 6, 25 °C, together with: KCN 50 mM",5000 ± 700
B5 (Paox),CC(=O)NCCCNCCCCNCCCN,"pH 10, 30 °C",230000 ± 78000
B6 (asnB E349D),NC(=O)CC[C@H](N)C(=O)O,"pH 8, 37 °C, 100 mM NaCl, glutaminase site, together with: MgCl2; no ATP",1510
B7 (protein Y93C),Nc1ccn([C@@H]2O[C@H](CO)[C@@H](O)[C@H]2O)c(=O)n1,"pH 7.2, 25 °C, KCl 100 mM, together with: ATP 100–200 µM",9000
B8 (vioC),N=C(N)NCCC[C@H](N)C(=O)O,"pH 8, 30 °C, apparent, together with: alpha-ketoglutarate 1.0 mM",12800 ± 3050
"cbh1 (Trichoderma reesei, UniProt P62694)",[H][C@@]1(O[C@H]2[C@H](O)[C@@H](O)[C@H](Oc3ccc([N+](=O)[O-])cc3)O[C@@H]2CO)O[C@H](CO)[C@H](O)[C@H](O)[C@H]1O,"pH 5, 25 °C, apparent",147
B9 (PRODH2 157-515),O=C(O)[C@@H]1C[C@@H](O)CN1,"pH 7.5, 25 °C, together with: CoQ1 200 µM",0.93
B10 (GDP-perosamine synthase),C[C@H]1O[C@H](OP(=O)(O)OP(=O)(O)OC[C@H]2O[C@@H](n3cnc4c(=O)[nH]c(N)nc43)[C@H](O)[C@@H]2O)[C@@H](O)[C@@H](O)C1=O,"pH 7.5, room temperature, NaCl 110 mM, ping-pong fit, together with: L-glutamate cosubstrate; 100 µM PLP",210000 ± 110000
"Ppip5k2 (Mus musculus, UniProt Q6ZQB6)",O=P(O)(O)O[C@@H]1[C@@H](OP(=O)(O)O)[C@H](OP(=O)(O)OP(=O)(O)O)[C@@H](OP(=O)(O)O)[C@H](OP(=O)(O)OP(=O)(O)O)[C@@H]1OP(=O)(O)O,"pH 5, 37 °C",14000

# A few entries again:
Molecule,substrate,conditions,kcat/Km [M⁻¹ s⁻¹]
B8 (vioC),N=C(N)NCCC[C@H](N)C(=O)O,"pH 8, 30 °C, apparent, together with: alpha-ketoglutarate 1.0 mM",12800 ± 3050
